Results from different studies.
± gives the spread as reported.

SMILES | target | assay | system | conditions | how to read | endpoint | value
CC[C@H](C)[C@H](NC(=O)[C@H](Cc1ccccc1)NC(=O)[C@H](CCC(=O)O)NC(=O)[C@H](CCCNC(=N)N)NC(=O)[C@H](C)NC(=O)[C@H](C)NC(=O)[C@H](CCC(N)=O)NC(=O)[C@H](CCC(=O)O)NC(=O)[C@H](CCC(=O)O)NC(=O)[C@H](CC(C)C)NC(=O)[C@H](Cc1ccc(O)cc1)NC(=O)[C@H](CO)NC(=O)[C@H](CO)NC(=O)[C@@H](NC(=O)[C@H](CC(=O)O)NC(=O)[C@H](CO)NC(=O)[C@@H](NC(=O)[C@H](Cc1ccccc1)NC(=O)[C@@H](NC(=O)CNC(=O)[C@H](CCC(=O)O)NC(=O)[C@H](C)NC(=O)CCc1cnc[nH]1)[C@@H](C)O)[C@@H](C)O)C(C)C)C(=O)N[C@@H](C)C(=O)N[C@@H](Cc1c[nH]c2ccccc12)C(=O)N[C@@H](CC(C)C)C(=O)N[C@H](C(=O)N[C@@H](CCCNC(=N)N)C(=O)NCC(=O)N[C@@H](CCCNC(=N)N)C(=O)N[C@@H](CCCCNC(=O)COCCOCCNC(=O)COCCOCCNC(=O)CC[C@H](NC(=O)CCCCCCCCCCCCCCCCC(=O)O)C(=O)O)C(=O)NCC(=O)NCC(=O)N[C@@H](CO)C(=O)N[C@@H](CCCCNc1c(NCCCCCN(O)C(=O)CCC(=O)NCCCCCN(O)C(=O)CCC(=O)NCCCCCN(O)C(C)=O)c(=O)c1=O)C(=O)N[C@@H](CCCCNc1c(NCCCCCN(O)C(=O)CCC(=O)NCCCCCN(O)C(=O)CCC(=O)NCCCCCN(O)C(C)=O)c(=O)c1=O)C(=O)O)C(C)C | GLP1R (Homo sapiens, UniProt P43220) | agonist, CRE luciferase reporter | BHK cells | Zr-loaded DFO conjugate, together with: 0% HSA | reference: parent peptide | fold potency loss | 3.6
Cc1cc2c(cc1N1C(=O)c3cccc4c(Cl)ccc(c34)C1=O)n(C)c(=O)n2C | Transcription intermediary factor 1-alpha, bromodomain (TRIM24, Homo sapiens, UniProt O15164) | thermal shift | – | 10 µM | – | ΔTm | -1.2 °C
CCCc1cc(C)[nH]c(=O)c1CNC(=O)c1cc(-c2ccc(N3CCN(C(C)C)CC3)nc2)cc2c1cnn2C(C)C | EZH1 (Homo sapiens, UniProt Q92800) | inhibitor | – | – | reference: EZH1 IC50 over EZH2 IC50 | selectivity ratio | ~10 fold
CN(CCOc1ccc(CC2SC(=O)NC2=O)cc1)c1ccccn1 (stereo not shown) | Ppara (Mus musculus, UniProt P23204, F272I) | far-UV circular dichroism | – | concentration not given | – | secondary structure change | no effect
NCCCS(=O)(=O)O | SLC6A6 (Homo sapiens, UniProt P31641, Y138A) | binding, microscale thermophoresis | – | 30.5 nM, room temperature, together with: 50 nM labelled protein | higher = more binding | normalised MST signal | -0.0435
Nc1ncnc2c1ncn2[C@@H]1O[C@H](CO[P@](=O)(O)O[P@](=O)(O)O[P@@](=O)(O)S)[C@@H](O)[C@H]1O | GUK1 (Homo sapiens, UniProt Q16774) | ITC | – | molar ratio 3.279 | – | ΔH | -0.243 kcal/mol
O=S(O)(O)=S | uncharacterized protein (Pelagibacter ubique, UniProt Q4FMK2) | differential scanning fluorimetry | Candidatus Pelagibacter ubique | concentration not given | higher = stronger binding | ΔTm | 5.04 °C
O=c1nc(SCc2cc(F)cc(C(F)(F)F)c2)nc(SCc2ccc3sccc3c2)[nH]1 | TOP2A (Homo sapiens, UniProt P11388) | DNA relaxation | – | 15.6 µM, replicate 2 | – | relaxed DNA | 46.6%
CC1CCCN(C(=O)c2cc3ncccn3n2)C1 (stereo not shown) | Transcription intermediary factor 1-beta, PHD-bromodomain (TRIM28, Homo sapiens, UniProt Q13263) | binding, affinity selection mass spectrometry | – | – | reference: other proteins in batch | log fold enrichment | -0.0035
CC(=O)N[C@H]1[C@H]([C@H](O)[C@H](O)CO)O[C@@](OC[C@H]2O[C@@H](Oc3ccc([N+](=O)[O-])cc3)[C@H](O)[C@@H](O)[C@H]2O)(C(=O)O)C[C@@H]1O | Sialidase-2 (Homo sapiens, UniProt Q9Y3R4) | substrate | – | 10 min, pH 5.0, 37 °C | – | kcat | 0.18 ± 0.01 s⁻¹

Some of these lines once more:
SMILES | target | assay | system | conditions | how to read | endpoint | value
Cc1cc2c(cc1N1C(=O)c3cccc4c(Cl)ccc(c34)C1=O)n(C)c(=O)n2C | Transcription intermediary factor 1-alpha, bromodomain (TRIM24, Homo sapiens, UniProt O15164) | thermal shift | – | 10 µM | – | ΔTm | -1.2 °C
